Measured values collected from several papers.
Lines come from different studies, so protocols differ. “And” joins repeats or separate records; there may be more than shown.
Target: Mitogen-activated protein kinase 12 (MAPK12, Homo sapiens, UniProt P53778)

`CC(C)=CC1OC(C)(C)C2C=C3C(=O)C(Cl)=CC(O)C3C3C(O)C4OC4C(=O)C132` (stereo not drawn) has a remaining binding of 59% (cell-free assay, competition with immobilised ligand; 10 µM).
For `COc1ccc(NC(=O)Nc2ccc3c(c2)C(=O)N(C(C)CO)CC(C)C(CN(C)Cc2ccc4c(c2)OCO4)O3)cc1` (stereo not drawn), the remaining activity was 75% (kinase activity, KinaseProfiler; 0.03 µM, species human; baseline: control).
`Cc1cccc(-c2ccc3nc(NC(=O)C4CCCCC4)nn3c2)c1` gave a remaining activity of 92% (enzyme activity, Dundee kinase panel; 10 µM).
`CN1CC[C@@H](COc2cnc(C#N)cc2-c2ccn3nc(NC(=O)C4CC4)cc3c2)C1` gave an inhibition of 4% (enzyme activity, inhibitor; 1 µM).
`COc1ccc(C(=O)/C=C/c2ccccc2-c2c[nH]c3ccc(C#N)cc23)c(O)c1` gave an inhibition of 2% (enzyme activity, inhibitor; 20 µM).
With `CNC1C[S+]2CC[S+]3CC[S+](C1)[Ru-4]321([N]=C=S)[n]2c3ccc(OC)cc3c3c4c(c5cc(F)c[n+]1c5c32)C(=O)NC4=O` (stereo not drawn) the remaining binding was 94% (KinomeScan; 0.1 µM; baseline: untreated).
`Cc1cccc(O[C@H]2CCC[C@@H](C(C)CNCc3ccncc3)C2)c1` (relative stereo) gave an inhibition of -1% (enzyme activity, inhibitor; 10 µM).
For `COCC12C(=O)NC3C4(C(OC)CC1O)C1CC5(O)C(OC)C(O)C(OC(C)=O)(C1C5OC(=O)c1ccccc1)C3(O)C(OC)C24` (stereo not drawn), the remaining activity was 84% and 101% (kinase activity, inhibitor, ProQinase kinase profiling; 25 µM; baseline: control).
`C=CC(=O)Nc1cccc(-c2cnc3[nH]cc(C(=O)NC(C)(C)C)c3n2)c1` gave an inhibition of 4% (enzyme activity, inhibitor; 0.1 µM).
For `Nc1nc(Nc2ccccc2)sc1C(=O)c1ccccc1`, the remaining activity was 53% (enzyme activity, inhibitor; 10 µM).
`C=CC(=O)N1Cc2nc(-c3cc(-c4cc(Cl)cnc4Cl)c(F)cc3F)n(-c3ccncn3)c2C1` gave an inhibition of 2.8% (cell-free assay, inhibitor; 1 µM).
With `CN1CCN(Cc2ccc(-c3ccc(CO[C@H]4CCC[C@@H]4NC(=O)c4cc(-c5cnn(C)c5)cnc4N)cc3)cc2)CC1` the inhibition was 4% (enzyme activity, inhibitor; 0.1 µM).
`NC(=O)[C@@H](O)C[C@H]1CCc2sc3ncnc(O[C@H]4CC[C@H](N5CCOCC5)CC4)c3c21` gave an inhibition of -3% (enzyme activity, inhibitor; 10 µM).
The remaining binding of `CCN1CCN(Cc2ccc(NC(=O)c3ccc(C)c(NC(=O)c4cncc(-c5cccs5)c4)c3)cc2C(F)(F)F)CC1` is reported as 28% (binding, competition with immobilised ligand; 1 µM).
For `O=C(Cc1ccc(OCc2ccccc2)cc1)NC1(C(=O)O)CCN(C(=O)c2ccc(-c3cccc(Cl)c3)cc2)CC1`, “activity vs control” read 116% (enzyme activity, inhibitor; 10 µM).
For `CCn1cc(C(=O)O)c(=O)c2c(N)c(F)c(NC3CCCCC3)cc21`, the inhibition was 8.4% (kinase activity; 0.1 µM, added: ATP at Km).
The remaining activity of `Cc1cccc(-c2ccc3nc(NC(=O)C4CCOCC4)nn3c2)c1` is reported as 93% (enzyme activity, Dundee kinase panel; 10 µM).
`COc1cc(Nc2nc(C)cc(-c3cnn4nc(OC)ccc34)n2)cc(C(F)(F)F)c1` gave a remaining binding of 71% (KINOMEscan; 1 µM, p38-gamma; baseline: DMSO).

Excerpt of the above:
For `CCn1cc(C(=O)O)c(=O)c2c(N)c(F)c(NC3CCCCC3)cc21`, the inhibition was 8.4% (kinase activity; 0.1 µM, added: ATP at Km).
For `COc1ccc(NC(=O)Nc2ccc3c(c2)C(=O)N(C(C)CO)CC(C)C(CN(C)Cc2ccc4c(c2)OCO4)O3)cc1` (stereo not drawn), the remaining activity was 75% (kinase activity, KinaseProfiler; 0.03 µM, species human; baseline: control).
`COc1ccc(C(=O)/C=C/c2ccccc2-c2c[nH]c3ccc(C#N)cc23)c(O)c1` gave an inhibition of 2% (enzyme activity, inhibitor; 20 µM).
